Assay results pooled from the literature.
Lines come from different studies, so protocols differ. ± gives the spread as reported.
Cell line: BEAS-2B

SMILES = COc1c(O)cc2oc3c(Br)c(O)c(CCC(C)C)c(O)c3c(=O)c2c1CCC(C)C; observed = cell growth or viability; IC50 = 16.1 µM
SMILES = COc1cc([C@@H]2c3cc4c(cc3[C@H](OC(=O)CCCc3ccc(NS(=O)(=O)c5ccccc5Br)cc3)[C@H]3COC(=O)[C@H]23)OCO4)cc(OC)c1OC; observed = cell growth or viability; technique = CCK-8; time = 24 h; IC50 = > 100 µM
SMILES = CC(=O)O[C@H]1C[C@H](O[C@H]2[C@@H](O)C[C@H](O[C@H]3[C@@H](O)C[C@H](O[C@H]4CC[C@@]5(C)[C@H](CC[C@@H]6[C@@H]5CC[C@]5(C)[C@@H](C7=CC(=O)OC7)CC[C@]65O)C4)O[C@@H]3C)O[C@@H]2C)O[C@H](C)[C@H]1O[C@@H]1O[C@H](CO)[C@@H](O[C@@H]2O[C@H](CO)[C@@H](O)[C@H](O)[C@H]2O)[C@H](O)[C@H]1O; observed = cell growth or viability; technique = MTT; time = 48 h; IC50 = 0.45 µM
SMILES = COc1c(O)cc2oc3cc4c(c(O)c3c(=O)c2c1CC=C(C)C)C=CC(C)(C)O4; observed = cell growth or viability; IC50 = 18.6 µM
SMILES = CCN(CC)c1ccc2c(c1)Oc1cc(N(CC)CC)ccc1C21c2ccccc2C(=O)N1N=Cc1c[c-]c(-c2ccccn2)cc1.Cc1c(C)c(-c2ccc(-c3ccccc3)cc2)[c-](C)c1C.[Cl-].[Ir+3]; observed = cell growth; technique = MTT; time = 24 h; IC50 = 30.12 ± 0.3 µM
SMILES = COc1ccc(S(=O)(=O)Nc2ccc(CCCC(=O)O[C@H]3c4cc5c(cc4[C@@H](c4cc(OC)c(OC)c(OC)c4)[C@H]4C(=O)OC[C@@H]43)OCO5)cc2)cc1; observed = cell growth or viability; technique = CCK-8; time = 24 h; IC50 = 81.2 µM
SMILES = O=C(Nc1ccc([N+](=O)[O-])cc1)C(c1ccc(C(F)(F)F)cc1)N(Cc1ccccc1)C(=O)c1ccc2ccccc2n1 (stereo not shown); time = 48 h; IC50 = 40.7 ± 2.8 µM
SMILES = CN(C)c1ccc(/C=C2\Oc3cc(O)ccc3C2=O)cc1; observed = cell growth or viability; technique = MTT; IC50 = > 100 µM
SMILES = COc1c(O)cc2oc3c(Cl)c(O)c(CC=C(C)C)c(O)c3c(=O)c2c1CC=C(C)C; observed = cell growth or viability; IC50 = > 40 µM
SMILES = Cc1c(C)c(-c2ccc(-c3ccccc3)cc2)[c-](C)c1C.Cc1c(C)c(-c2ccc(-c3ccccc3)cc2)[c-](C)c1C.[Cl-].[Cl-].[Cl-].[Cl-].[Ir+3].[Ir+3] (stereo not shown); observed = cell growth; technique = MTT; time = 24 h; IC50 = > 50 µM

For quick reference, copied from above:
SMILES = CN(C)c1ccc(/C=C2\Oc3cc(O)ccc3C2=O)cc1; observed = cell growth or viability; technique = MTT; IC50 = > 100 µM
